Measurements collected from several papers.
Lines come from different studies, so protocols differ. “And” joins repeats or separate records; there may be more than shown. ± marks the error that the study gave.

COc1ccc(CCC(=O)O)cc1O[C@@H]1O[C@H](C(=O)O)[C@@H](O)[C@H](O)[C@H]1O  CSF concentration (human CSF; concentration not given, mean): not detected
N#Cc1ccc2c(c1)[C@H]1CCCN(C(=O)c3ccc4[nH]cnc4c3)[C@H]1C2  DHEA-S level (human, female; 240 mg, day 15): 5 µmol/L
C=CC(=O)NC1CCN(c2ncc3ncnc(Nc4ccc(Oc5ccc6c(c5)ncn6C)c(C)c4)c3n2)CC1  participants with treatment-related AE (healthy male humans; oral, 240 mg): 31.3%
O=C(/C=C/CCc1ccc(O)cc1)/C=C/c1ccc(O)cc1  body weight (nude mouse MCF7 xenograft; 40 mg/kg, day 4): 19.6 ± 0.98 g
COc1ccc2[nH]c([S+]([O-])Cc3ncc(C)c(OC)c3C)nc2c1 (centres unmarked)  t1/2 (healthy Chinese volunteers, CYP2C19 poor metabolizers; oral, 20 mg, enteric-coated capsules): 2.64 ± 0.89 h
C[C@@H]1CN(CC(=O)N2CC(C)(C)c3ncc(Cc4ccc(F)cc4)cc32)[C@@H](CN2CCOC[C@H]2C)CN1  oral bioavailability (male cynomolgus monkey; oral, 15 mg/kg): 4 ± 0.87%
Cc1c(-c2ccc(N3CCc4cccc(C(=O)Nc5nc6ccccc6s5)c4C3)nc2C(=O)O)cnn1CC12CC3(C)CC(C)(C1)CC(OCCNCC[C@H](O)CO)(C3)C2  mean arterial pressure change (beagle dog, anaesthetised; intravenous infusion, 0.1 mg/kg/min, 75 min; baseline: baseline): 2 mmHg
O=C(O)CCC(=O)O.[2H]C([2H])([2H])Oc1cc(C)c2[nH]ccc2c1CN1CC[C@@H](C2CC2)C[C@H]1c1ccc(C(=O)O)cc1  subjects with elevated bilirubin TEAE (multiple ascending dose; healthy Chinese subjects; 200 mg once daily): 0%
COc1ncc(-c2nc3c(n2C(C)C)[C@H](c2ccc(Cl)cc2)N(c2cc(Cl)cn(C)c2=O)C3=O)c(OC)n1  median Tmax (human patients, plasma; oral, 400 mg, high-dose arm, cycle 2 day 1): 4.1 h
O=C(O)c1ccc(O)cc1  CSF concentration (human CSF; concentration not given, mean): not detected
Cc1c(OCC(F)(F)F)ccnc1C[S+]([O-])c1nc2ccccc2[nH]1 (centres unmarked)  CL, body weight adjusted (human, plasma; oral, dose not given, median): 3.33 mL/min/kg
CC(=O)N(C)[C@H]1CCN(C(=O)c2cnc3c(c2)C[C@](C)(c2ccc(F)cc2)N3)C1  adverse event duration (refers to: Rhinitis; human; oral, 30 mg once daily): 1 days
CC(C)NCC(O)COc1cccc2ccccc12 (centres unmarked)  heart rate (male Hartley guinea pigs, anaesthetized; intravenous, 1 mg/kg group, baseline before infusion): 221 ± 0.4 beats/min
C[C@@H](Nc1cc(F)cc(F)c1)c1cc(C(=O)N(C)C)cc2c(=O)cc(N3CCOCC3)oc12  treatment-related serious adverse events (refers to: drug-induced liver injury; patients with advanced solid tumours; oral, dose not given, dose finding phase I): 0%
C=CC(=O)N(C)CCOc1c(N)ncnc1-c1cc(F)cc(NC(=O)c2ccc(C3CC3)cc2F)c1C  AUC (human, plasma; oral, 25 mg once daily, day 12): 117 ng·h/mL
CN(C(=O)n1cnc(-c2cccnc2)c1)[C@H]1CC[C@H](O)CC1  concentration (Wistar rat, pons; oral, 10 mg/kg/day of BIA 10-2474, 72 h, repeated 5 days): 13.5 ± 1.3 ng/g
C=CC(=O)N1CCC(c2ccc(C(N)=O)c(-c3ccc(Oc4ccccc4)cc3)n2)CC1  treatment-related AE rate (relapsed/refractory mantle cell lymphoma patients; oral, 100 mg twice daily, part, CTCAE v4.03): 31.3%
C[C@H]1O[C@@H](O[C@H]2CC[C@@]3(C)[C@@H](CC[C@]4(C)[C@@H]3C=C[C@]35OC[C@@]6(CCC(C)(C)C[C@H]63)[C@@H](O)C[C@]54C)[C@]2(C)CO)[C@H](O)[C@@H](O[C@@H]2O[C@H](CO)[C@@H](O)[C@H](O)[C@H]2O)[C@H]1O  plasma concentration (UHPLC-MS/MS; mouse, plasma; oral, 50 mg/kg, 10 h, pooled samples): 0 ng/mL
Cn1cnc2c(F)c(Nc3ccc(Br)cc3Cl)c(C(=O)NOCCO)cc21  peripheral volume of distribution (human, plasma; oral, dose not given, nonlinear absorption): 57.6 L
CCc1c(-c2ccccc2)c(-c2ccccc2)nn1-c1ccccc1-c1cccc(OCC(=O)O)c1  MRT(0-t) (Sprague-Dawley rat; intravenous): 0.658 h and 0.845 h and 0.653 h
CCOc1c([C@H](C)n2nc(C)c3c(N)ncnc32)cc(Cl)c(F)c1[C@@H]1CNC(=O)C1  observations QTcF >480 ≤500 ms (ECG; previously treated B-cell malignancy patients; oral, 15 mg once daily, baseline QTcF ≤450 ms): 0%
CNc1ccc(-c2nc3ccc(O)cc3s2)cc1 [carbon-11 labelled]  SUV (ex vivo biodistribution; APP/PS1 mouse, AD model, blood; intravenous, 30 min): 0.516 ± 0.296
Cc1cc(-c2nnc(N)nc2-c2ccc(F)cc2)cc(Cl)n1  patients with treatment-related adverse events (refers to: Diarrhea; human phase Ia/Ib colorectal cancer, immunotherapy-naive; oral, dose not given): 8%
Cc1cc(NC2CCN(C(=O)OC3CCN(C(=O)/C=C/CN(C)C)C3)CC2)n2ncc(C(C)C)c2n1 (centres unmarked)  patients with adverse events (patients with advanced solid tumours; dose not given, TIW arm, any grade): 91%
C[C@@H](N)C1CCN(S(=O)(=O)c2cccc3cnccc23)CC1  participants with mental impairment (healthy volunteers; 250 mg, fasted): 16.7%
CCN1/C(=C/C(C)=O)Sc2ccc(F)cc21  systolic blood pressure (cynomolgus monkey; oral, 100 mg/kg, 0.5 h post-dose): 114 ± 5 mmHg
C=CC(=O)Nc1cc(Nc2nccc(Nc3cc(Cl)c(F)cc3C(C)(C)O)n2)c(OC)cc1N1CC[C@@H](N(C)C)C1  absorption rate constant (two-compartment PK model; mouse): 0.49 h⁻¹
CCCCc1oc2ccccc2c1C(=O)c1cc(I)c(OCCN(CC)CC)c(I)c1  heart rate (male Hartley guinea pigs, anaesthetized; intravenous, 5 mg/kg over 10 min, after infusion): 199 ± 0.3 beats/min
CCc1cc(C(=O)NC)c2nccc(N3CCc4c(cc(Cn5ccnc5)cc4-c4cn(C)nc4C(F)(F)F)C3=O)c2c1  serum LDL level (Sprague Dawley rats; oral, 100 mg/kg twice daily, 7 days): 0.6 ± 0.12 mmol/L
Cc1c(C(=O)O)ccc2c3n(nc12)[C@@H]1[C@H](C3)N(CC2CC2)[C@@]2(C(=O)Nc3cc(Cl)ccc32)[C@H]1c1cccc(Cl)c1F  MRT total (Chbb:Beagle dog, male, plasma; oral, 2 mg/kg): 3.9 h
Cc1ccc([C@@H]2O[C@H](CO)[C@@H](O)[C@H](O)[C@H]2O)cc1Cc1ccc(-c2ccc(F)cc2)s1  urinary potassium excretion change (Japanese type 2 diabetes patients; 400 mg, day 4, 24 h urine collection; baseline: baseline): -4.09 mEq
O=C1c2ccncc2C(=O)c2c1[nH]c1ccccc21  tissue concentration (Sprague-Dawley rat, male, right ventricle; oral, 5 mg/kg, 24 h): 0.067 ± 0.036 nmol/mg
CC/C(=C(\c1ccccc1)c1ccc(OCCN(C)C)cc1)c1ccccc1  heart rate (male Hartley guinea pigs, anaesthetized; intravenous, 30 mg/kg group, baseline before infusion): 239 ± 0.8 beats/min
O=C1NCCc2nc(OCc3cccc(F)c3)ccc21  Irwin test score (refers to: Vasodilatation; Sprague-Dawley rat male; oral, 100 mg/kg, 4 h; direction not given): 0
O=C(CCCN1CC=C(n2c(=O)[nH]c3ccccc32)CC1)c1ccc(F)cc1  heart rate (male Hartley guinea pigs, anaesthetized; intravenous, 0.1 mg/kg group, baseline before infusion): 231 ± 0.7 beats/min
C[C@@H](Oc1ccc(S(C)(=O)=O)cc1C(=O)N1C[C@@H]2C[C@]2(c2cc(C(F)(F)F)on2)C1)C(F)(F)F  incidence of Rhinitis (human; oral, 25 mg): 16.7%
O=C(N[C@H](Cc1c[nH]c2ccccc12)C(=O)Nc1ccncc1)c1ccc(-c2ccc(F)c(C(F)(F)F)c2)cc1F  concentration (Swiss Webster mouse, female, liver; oral, 50 mg/kg, 2 h, 20% HPβCD vehicle): 31.9 µM
O=C1CCc2ccc(OCCCCN3CCN(c4cccc(Cl)c4Cl)CC3)cc2N1  cardiovascular symptom frequency (CYP2D6 ultrarapid metabolizers; concentration not given, genotype-based phenotype, long-acting oral or depot): 15%
Cc1ccc(Sc2ccccc2N2CCNCC2)c(C)c1  participants with TEAE (refers to: Dizziness; healthy adult men; oral, 10 mg daily, 12 days): 0%
O=C(NCc1ccc(CNC23CC4CC(CC(C4)C2)C3)cc1)c1csc2nc[nH]c(=O)c12  EC50 (human red blood cells in PBS; 1 h, 37 °C, estimated, weak activity): > 100 µM
OCCc1ccc(O)cc1  CSF concentration (human CSF; concentration not given, mean): not detected
O=C(Nc1cnccc1Cl)N1CCN(Cc2ccc3c(c2)OC(F)(F)O3)CC1  volunteers with adverse event (refers to: Somnolence; healthy elderly humans; 100 mg once daily, 10 days): 0%
CN1CCN(c2cccc3c2CCN(C(=O)/C=C/c2c(-n4cnnn4)ccc(Cl)c2F)[C@@H]3C(=O)Nc2ccc(C(=O)O)cc2)C(=O)C1  subjects with nausea (healthy human subjects; intravenous infusion, 25 mg/h, 2 h): 0%
Cc1ccc(C(=O)N(CCCN)C(c2nc3snc(C)c3c(=O)n2Cc2ccccc2)C(C)C)cc1 (centres unmarked)  patients with adverse events (refers to: Stomatitis; human patients; intravenous, dose not given, CTCAE grade ≥3, all doses): 8%
CN1C[C@H](COc2nccc3c(NCc4ccco4)cc(Cl)nc23)OC1=O  heart rate (rabbit NZW female, isolated Langendorff heart; 10 µM, 15 min): 149 beats/min
CCCCCCC#Cc1cncc(-c2nnc(SCc3ccc([N+](=O)[O-])cc3)n2C)c1  CC50 (African green monkey cells; 72 h): 27 ± 5.43 µM
[18F]c1ccc(-c2ccc3c(c2)[nH]c2ccncc23)cn1  uptake (ex vivo biodistribution; normal B6SJL mice, gut; intravenous, 30 min): 2.73 ± 1.39 SUV
COc1ccc([C@@H](O)c2cc(-c3ncnc4cc(N5CCOCC5)ccc34)c(F)cc2Cl)nn1  anaemia TEAE incidence (locally advanced rectal cancer patients; 150 mg, together with: capecitabine and radiotherapy): 17%
Cc1cccc(C)c1OCC(=O)N[C@@H](Cc1ccccc1)[C@@H](O)C[C@H](Cc1ccccc1)NC(=O)[C@H](C(C)C)N1CCCNC1=O  amorphous solubility (50 mM phosphate buffer, 100 µg/mL HPMCAS; pH 6.5, 37 °C, average of three methods): 17.2 µg/mL
COc1ccc2c(=O)n(C)c(-c3ccccc3)nc2c1  tissue concentration (Sprague-Dawley rat, brain; oral, 30 mg/kg, 0.25 h): not detected
COc1ccnc(C(=O)NC(CO)C(=O)O)c1O (racemic)  DT50 (aerobic dark soil incubation; soil; geometric mean of 4 soils, persistence endpoint): 1.2 days
CC(C)(C(=O)N1CCOc2c(C#N)cncc2C1)C(F)F  subjects with headache TEAE (human, both sexes; oral, 20 mg single dose): 16.7%
O=C(O)C(O)Cc1ccc(O)cc1 (centres unmarked)  CSF concentration (human CSF; concentration not given, mean): not detected
CN1C(=O)[C@@H](NC(=O)c2nnc(Cc3ccccc3)[nH]2)COc2cccnc21  participants with any AE of special interest (phase I single ascending dose; human, male and female; oral, 400 mg, fasted): 0%
CN(C(=O)n1cnc(-c2ccc[n+]([O-])c2)c1)[C@H]1CC[C@H](O)CC1  concentration (Wistar rat, medulla oblongata; oral, 10 mg/kg/day of BIA 10-2474, 24 h, repeated 5 days): 8.8 ± 6.8 ng/g
C=CC(=O)Nc1cc(Nc2nccc(-c3cn(C)c4ccccc34)n2)c(OC)cc1N(C)CCN(C)C  recovery (storage stability; human plasma; 24 h, on ice, LLOQ level): 78.8%

For quick reference, copied from above:
C[C@H]1O[C@@H](O[C@H]2CC[C@@]3(C)[C@@H](CC[C@]4(C)[C@@H]3C=C[C@]35OC[C@@]6(CCC(C)(C)C[C@H]63)[C@@H](O)C[C@]54C)[C@]2(C)CO)[C@H](O)[C@@H](O[C@@H]2O[C@H](CO)[C@@H](O)[C@H](O)[C@H]2O)[C@H]1O  plasma concentration (UHPLC-MS/MS; mouse, plasma; oral, 50 mg/kg, 10 h, pooled samples): 0 ng/mL
CCOc1c([C@H](C)n2nc(C)c3c(N)ncnc32)cc(Cl)c(F)c1[C@@H]1CNC(=O)C1  observations QTcF >480 ≤500 ms (ECG; previously treated B-cell malignancy patients; oral, 15 mg once daily, baseline QTcF ≤450 ms): 0%
Cc1c(C(=O)O)ccc2c3n(nc12)[C@@H]1[C@H](C3)N(CC2CC2)[C@@]2(C(=O)Nc3cc(Cl)ccc32)[C@H]1c1cccc(Cl)c1F  MRT total (Chbb:Beagle dog, male, plasma; oral, 2 mg/kg): 3.9 h
COc1ccc2[nH]c([S+]([O-])Cc3ncc(C)c(OC)c3C)nc2c1 (centres unmarked)  t1/2 (healthy Chinese volunteers, CYP2C19 poor metabolizers; oral, 20 mg, enteric-coated capsules): 2.64 ± 0.89 h
